Results collected from several papers.
Compare with care: the assays were run in different laboratories. Numbers after ± are the reported error.
NR3C1: Glucocorticoid receptor (NR3C1, Homo sapiens, UniProt P04150)

Sequences of proteins named here, by UniProt entry; tags and fusion partners are left off.
UniProt P04150, whole entry: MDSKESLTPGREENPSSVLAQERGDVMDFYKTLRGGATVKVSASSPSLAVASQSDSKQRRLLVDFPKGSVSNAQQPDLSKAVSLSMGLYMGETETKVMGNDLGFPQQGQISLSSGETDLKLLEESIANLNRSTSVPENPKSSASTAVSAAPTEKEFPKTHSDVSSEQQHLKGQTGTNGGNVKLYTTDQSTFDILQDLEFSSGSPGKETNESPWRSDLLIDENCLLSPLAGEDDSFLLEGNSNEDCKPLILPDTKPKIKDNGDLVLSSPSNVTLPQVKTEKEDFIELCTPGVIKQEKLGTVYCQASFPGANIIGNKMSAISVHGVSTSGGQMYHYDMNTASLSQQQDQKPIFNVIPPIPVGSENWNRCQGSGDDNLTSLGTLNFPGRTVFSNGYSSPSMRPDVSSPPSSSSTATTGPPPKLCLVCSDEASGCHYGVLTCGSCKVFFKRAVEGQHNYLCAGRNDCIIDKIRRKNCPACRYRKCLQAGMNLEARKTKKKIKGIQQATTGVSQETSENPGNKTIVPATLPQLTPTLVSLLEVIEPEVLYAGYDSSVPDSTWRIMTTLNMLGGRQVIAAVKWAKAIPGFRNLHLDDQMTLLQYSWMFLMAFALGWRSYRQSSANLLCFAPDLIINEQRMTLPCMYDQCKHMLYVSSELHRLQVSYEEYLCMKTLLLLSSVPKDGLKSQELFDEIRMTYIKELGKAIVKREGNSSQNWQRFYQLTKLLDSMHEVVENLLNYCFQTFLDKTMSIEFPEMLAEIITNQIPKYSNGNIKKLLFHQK
UniProt P10636, whole entry, looked up: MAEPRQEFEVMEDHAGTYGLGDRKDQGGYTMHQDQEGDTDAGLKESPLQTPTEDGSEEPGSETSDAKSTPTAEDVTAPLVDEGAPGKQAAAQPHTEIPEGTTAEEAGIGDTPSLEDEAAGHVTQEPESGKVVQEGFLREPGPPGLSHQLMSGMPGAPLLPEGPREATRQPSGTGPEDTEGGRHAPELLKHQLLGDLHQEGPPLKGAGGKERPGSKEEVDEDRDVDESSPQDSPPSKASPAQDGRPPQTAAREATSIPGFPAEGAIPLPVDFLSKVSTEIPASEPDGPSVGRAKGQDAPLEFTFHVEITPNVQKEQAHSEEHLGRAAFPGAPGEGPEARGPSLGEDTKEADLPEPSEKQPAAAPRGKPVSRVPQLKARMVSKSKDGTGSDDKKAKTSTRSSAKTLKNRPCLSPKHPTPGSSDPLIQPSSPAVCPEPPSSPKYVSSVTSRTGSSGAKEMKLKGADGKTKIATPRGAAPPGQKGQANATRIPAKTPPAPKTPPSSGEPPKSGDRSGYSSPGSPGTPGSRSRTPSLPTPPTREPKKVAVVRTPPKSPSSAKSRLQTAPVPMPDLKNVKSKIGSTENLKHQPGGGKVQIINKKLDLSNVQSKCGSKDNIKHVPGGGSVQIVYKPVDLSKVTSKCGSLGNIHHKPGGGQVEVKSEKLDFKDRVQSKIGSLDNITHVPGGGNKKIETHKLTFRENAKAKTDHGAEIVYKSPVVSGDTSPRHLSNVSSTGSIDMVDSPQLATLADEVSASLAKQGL
UniProt Q9ULI0, whole entry: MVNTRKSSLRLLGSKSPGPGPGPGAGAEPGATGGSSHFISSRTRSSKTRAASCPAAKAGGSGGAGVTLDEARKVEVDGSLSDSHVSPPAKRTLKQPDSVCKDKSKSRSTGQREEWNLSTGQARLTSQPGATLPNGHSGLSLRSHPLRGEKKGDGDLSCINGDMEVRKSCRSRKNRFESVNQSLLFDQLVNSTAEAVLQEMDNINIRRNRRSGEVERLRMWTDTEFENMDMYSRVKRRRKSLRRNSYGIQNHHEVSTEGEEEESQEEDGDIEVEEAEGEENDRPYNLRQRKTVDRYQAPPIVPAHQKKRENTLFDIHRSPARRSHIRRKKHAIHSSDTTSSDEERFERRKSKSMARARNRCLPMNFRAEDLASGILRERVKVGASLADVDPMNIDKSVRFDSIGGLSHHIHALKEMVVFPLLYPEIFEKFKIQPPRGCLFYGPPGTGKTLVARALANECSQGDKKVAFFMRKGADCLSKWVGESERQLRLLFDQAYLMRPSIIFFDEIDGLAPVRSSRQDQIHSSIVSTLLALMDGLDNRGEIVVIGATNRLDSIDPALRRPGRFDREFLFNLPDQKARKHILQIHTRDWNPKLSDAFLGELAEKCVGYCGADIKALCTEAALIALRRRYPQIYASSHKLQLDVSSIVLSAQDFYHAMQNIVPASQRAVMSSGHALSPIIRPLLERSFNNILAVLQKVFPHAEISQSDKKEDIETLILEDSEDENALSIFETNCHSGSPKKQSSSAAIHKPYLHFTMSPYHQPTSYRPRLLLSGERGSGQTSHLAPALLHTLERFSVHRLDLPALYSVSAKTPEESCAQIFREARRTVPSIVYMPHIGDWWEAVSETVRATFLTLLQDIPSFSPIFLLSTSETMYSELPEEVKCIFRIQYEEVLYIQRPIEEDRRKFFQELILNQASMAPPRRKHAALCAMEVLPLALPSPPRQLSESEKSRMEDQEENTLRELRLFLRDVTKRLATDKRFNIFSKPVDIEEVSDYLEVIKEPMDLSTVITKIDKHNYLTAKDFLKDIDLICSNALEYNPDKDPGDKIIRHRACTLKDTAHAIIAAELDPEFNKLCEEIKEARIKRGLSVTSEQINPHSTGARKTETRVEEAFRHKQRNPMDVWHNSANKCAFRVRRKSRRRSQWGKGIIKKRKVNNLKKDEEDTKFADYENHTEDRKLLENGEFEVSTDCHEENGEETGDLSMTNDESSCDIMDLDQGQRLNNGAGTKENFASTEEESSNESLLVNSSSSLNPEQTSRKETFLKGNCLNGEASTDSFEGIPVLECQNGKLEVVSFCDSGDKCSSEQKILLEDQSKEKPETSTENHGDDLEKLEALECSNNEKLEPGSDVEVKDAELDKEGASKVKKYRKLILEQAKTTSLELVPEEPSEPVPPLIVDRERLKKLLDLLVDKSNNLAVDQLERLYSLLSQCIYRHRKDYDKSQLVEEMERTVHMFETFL

Structure (SMILES)	target or system	test	test system	setting	scale	measurement	result
c1nn(C2CCOCC2)cc1Nc1ncc2nnn(-c3ccc4cn[nH]c4c3)c2n1	HuR	western blot	cytoplasm	concentration not given	baseline: untreated	protein level	decreased
Fc1cc(-c2ccc3c(n2)[nH]c2ccncc23)ccn1 [isotope labelled]	Microtubule-associated protein tau, paired helical filaments (MAPT, Homo sapiens, UniProt P10636)	radioligand binding	PHF tau brain homogenate	1.8 nM	higher = more binding	specific binding	2.02 a.u.
CC(C)c1cc2c(N3CCN(C4=NCC(C)(C)S4)CC3)ncnc2s1	MLL-AF9 transduced mouse BMC	cell growth, MTT	–	–	–	GI50	~5000 nM
Cc1cccc(NC(=O)c2nn(Cc3cnc[nH]3)c3c2CN(C(=O)c2ccc[nH]2)CC3)c1	IDH1 R132G AML cells	Hoechst/Pyronin Y staining	–	3 µM, 7 days	–	G1-phase cells	25.3 ± 2.5%
Nc1c(C(=O)Nc2c(F)cc(F)cc2Br)sc2nc3c(cc12)CCC3	H1299	item: p-AMPK and p-ACC1	–	concentration not given, 12 h	–	protein phosphorylation	increased
CC[C@@H]1C(=O)N(C)c2cnc(Nc3ccc(C(=O)NC4CCN(C)CC4)cc3OC)nc2N1C1CCCC1	ATAD2B (Homo sapiens, UniProt Q9ULI0)	–	–	10 µM	–	delta Tm	-0.28 ± 0.12 °C
Cc1c(O)cc2c(c1C)O[C@](C)(CCCC(C)C)CC2	LNCaP	–	lipid raft fractions	concentration not given	–	cholesterol reduction	≤ 30%
O=C1CCC(N2C(=O)c3cccc(NCCOCCOCCOCCN4CCN(c5ccc(-c6ccc7c(c6)C(=O)N(C(C(=O)Nc6nccs6)c6ccccc6)C7)cn5)CC4)c3C2=O)C(=O)N1 (stereo not shown)	Ba/F3 EGFR L858R/T790M/L718Q	cell proliferation	–	–	–	EC50	28 nM
O=C(/C=C/c1nc2ccccc2[nH]1)c1c(-c2ccccc2)c2cc(Cl)ccc2[nH]c1=O	–	–	C3H/HeJ mouse, SW1 syngeneic melanoma	oral gavage, 100 mg/kg, 3 times weekly	baseline: vehicle	tumour size reduction	> 2 fold
COc1cc(CC(=O)NCC(NC(=O)C(CCCNC(=O)c2cccc(I)c2)NC(=O)C(Cc2ccc(C(F)(F)P(=O)(O)O)cc2)NC(=O)c2ccc(C)c(Br)c2)C(N)=O)ccc1O (stereo not shown)	primary mouse hepatocytes	Western blot	–	100 nM, with: insulin 5 nM, 5 min	baseline: insulin alone	Akt Ser473 phosphorylation	3.1 fold
O=C(Nc1cccnn1)N1CC(Oc2ccc(-c3ccccc3F)cn2)C1	–	Emax model of Ctrough concentration-response, item: plasma LEA	human, plasma	oral, repeated daily dosing	–	Emax	~4 ng/mL
CCc1c(-c2ccccc2)nn2c(=O)cc(-c3cccc(C(=O)O)c3)[nH]c12	–	–	mouse	2 mg/kg, 24 h	–	plasma level	not detected
CCCCCCCC(=O)OCC(COP(=O)(O)OC1C(O)C(O)C(OP(=O)(O)O)C(OP(=O)(O)O)C1O)OC(=O)CCCCCCC (stereo not shown)	PLCδ1 PH-ASAP1 chimera	membrane binding, sedimentation	LUVs without PtdSer	–	–	Kd	960 ± 150 nM
Cc1cc(C)c(CNC(=O)c2cc(-c3ccc(N4CCN(CCNC(=O)CC56CC7CC(CC(C7)C5)C6)CC4)nc3)cc3c2cnn3C(C)C)c(=O)[nH]1	panel of 45 kinases	kinase activity	–	10 µM	–	inhibition	< 10%
CN(C)CCC(=O)[C@@]1(O)CC[C@H]2[C@H]3CC=C4C[C@@H](O)CC[C@]4(C)[C@H]3CC[C@]21C	NR3C1	nuclear translocation, agonist, enzyme fragment complementation	–	–	–	EC50	> 9000 nM
Fc1cccc(-n2cnc3c(NCc4nc5cc(Cl)ccc5[nH]4)nc(N4CCNCC4)nc32)c1	FLT3 ITD	KINOMEscan competition binding	–	10 µM	baseline: control	remaining binding	15%
Cc1ccc([C@H](CC(=O)O)NC(=O)Nc2c(O)c(C)cn(Cc3ccccc3Cl)c2=O)cc1	B-ALL cells	flow cytometry	–	1 to 25 µM, 24 to 96 h	–	surface integrin alpha-5 level	no effect
C[C@]12CC[C@H]3c4ccc(O)cc4CC[C@@H]3[C@H]1CC[C@@H]2OC(=O)CCc1ccccc1	NR3C1	nuclear translocation, agonist, enzyme fragment complementation	–	–	–	EC50	> 9000 nM
CCN1CCN(Cc2ccc(NC(=O)c3ccc(C)c(Oc4ncnc5cc(OC)c(OC)cc45)c3)cc2C(F)(F)F)CC1	FLT3-ITD human	KINOMEscan competition binding	–	1.0 µM	–	residual probe binding	5.2%

For quick reference, copied from above:
Structure (SMILES)	target or system	test	test system	setting	scale	measurement	result
Cc1cc(C)c(CNC(=O)c2cc(-c3ccc(N4CCN(CCNC(=O)CC56CC7CC(CC(C7)C5)C6)CC4)nc3)cc3c2cnn3C(C)C)c(=O)[nH]1	panel of 45 kinases	kinase activity	–	10 µM	–	inhibition	< 10%
O=C(Nc1cccnn1)N1CC(Oc2ccc(-c3ccccc3F)cn2)C1	–	Emax model of Ctrough concentration-response, item: plasma LEA	human, plasma	oral, repeated daily dosing	–	Emax	~4 ng/mL
CCc1c(-c2ccccc2)nn2c(=O)cc(-c3cccc(C(=O)O)c3)[nH]c12	–	–	mouse	2 mg/kg, 24 h	–	plasma level	not detected
